Experimental data of several laboratories.
Protocols differ between the studies behind these lines. Several values in a cell are separate wells, animals, samples, runs or records. ± marks the error that the study gave.

CCN(CC)c1ccc(C=NNC(=O)CSc2nc3ccccc3c(=O)n2Cc2ccc(S(N)(=O)=O)cc2)c(O)c1 — CC50 (UACC-62; NCI five-dose screen): > 100 µM
O=C1N(Cc2ccccc2Cl)c2ccccc2C12NN=C(c1ccccc1)S2 (stereo not drawn) — fold change (MDA-MB-468; gene expression array, item: TSSC4 mRNA; 10 µM, 12 h; relative to: untreated, up): 1.63
Oc1ccc(C2(c3ccc(O)cc3)c3ccccc3-c3ccccc32)cc1 — S phase cells (HepG2 spheroids; Hoechst flow cytometry; 1 µM, 24 h): 8.01 ± 1.77%
C/C=C(/C)C(=O)O[C@H]1C(C)=C2[C@H]([C@@H]1OC(=O)CCCCCCC)[C@@](C)(OC(C)=O)C[C@H](OC(=O)CCC)[C@@]1(O)[C@H]2OC(=O)[C@@]1(C)O — log2 fold change (HEK293T; RNA-seq, item: ASNS mRNA; 10 µM, 6 h; relative to: vehicle): 2.24
O=C(NCCc1c[nH]c2ccccc12)C(=O)c1cn(Cc2ccc(Cl)cc2)c2ccccc12 — cytotoxicity (BxPC-3, MDA-MB-231, PC-3, HeLa, C4-2, HEK293T; MTT; 100 µM): not toxic
COc1ccc2c(c1)[nH]c1c(C)nccc12 — DNA methylation (DU-145; bisulfite pyrosequencing, item: RASSF1A promoter CpG site 6; 10 µM, 16 h): 88.1%
CN1CCN(S(=O)(=O)c2cc([N+](=O)[O-])ccc2N(CCOS(C)(=O)=O)CCOS(C)(=O)=O)CC1 — IC50 fold change (sample G B-ALL PDX cells; cell viability; ex vivo; 48 h, with: AKR1C3 inhibitor; relative to: with inhibitor over alone): 1
C[C@H]1[C@H](C)CC[C@]2(C(=O)O)CC[C@]3(C)C(=CC[C@@H]4[C@@]5(C)CC[C@H](O)C(C)(C)[C@@H]5CC[C@]43C)[C@H]12 — cell survival (3T3; cell growth, MTT; 7.25 µg/mL, 48 h): 77.44 ± 0.46%
COc1cnc(OC)n2nc(NS(=O)(=O)c3c(OCC(F)F)cccc3C(F)(F)F)nc12 — inhibition (HEK293T; cytotoxicity, CCK-8; 50 µM, 72 h): 0.27 ± 0.16%
COc1cc([C@@H]2c3cc4c(cc3C[C@H]3COC(=O)[C@@H]32)OCO4)cc(OC)c1OC — PCNA level (neuroblastoma M2 (−); western blot; IC50; relative to: untreated): decreased
CCCCCCCCCCCCCC(=O)O[C@@H]1[C@@H](C)[C@@]2(O)[C@@H](C=C(CO)C[C@]3(O)C(=O)C(C)=C[C@@H]23)[C@@H]2C(C)(C)[C@]12OC(C)=O — sub-G0 cells (HEL; flow cytometry; concentration not given; relative to: cells): 2.63% and 2.85% and 2.37%
Nc1ncnc2c1ncn2[C@@H]1O[C@@H]2COP(=O)(O)O[C@H]3[C@@H](O)[C@H](n4cnc5c(=O)[nH]cnc54)O[C@@H]3COP(=O)(O)O[C@H]2[C@H]1O — pathway fold enrichment (HFF-1; RNA sequencing, item: Sensory Perception; downregulated pathway; relative to: Zika virus alone): 3.05
Cc1cc(C(C)(C)c2ccc(O)c(C)c2)ccc1O — S phase cells (HepG2 spheroids; Hoechst flow cytometry; 10 µM, 24 h): 9.44 ± 2.36%
Oc1cc(O)cc(-c2cc3ccc(O)cc3o2)c1 — cell survival (3T3; cell growth, MTT; 3.6 µg/mL, 48 h): 79.8 ± 1.2%
Cc1ccc2cc(N3CCC4(O)C(=O)c5cc(C)c(C)cc5N=C34)ccc2n1 (stereo not drawn) — maximal inhibition (COS-7; cytokinesis): ~100%
COc1c(C)c2c(c(O)c1C/C=C(\C)CCC(=O)O)C(=O)OC2 — IC50 (skin cancer cell lines; cell proliferation; average over lines): 0.646 µM
Cc1ccc2c(c1)C=Cc1cc(C)ccc1C2c1cn(Cc2ccc(C(=O)Nc3nn[nH]n3)o2)c(=O)[nH]c1=S — effect on signal (N2a; fluorescence signal increase, inhibitor; 1 µM, with: BzATP 300 µM): no effect
Nc1ncc(-c2nc(N3CCOCC3)nc(N3CCOCC3)n2)c(C(F)F)n1 — GI50 (PA-1; 72 h): 0.412 µM
C[C@]12CC[C@H](O)C[C@H]1CC[C@@H]1[C@@H]2CC[C@]2(C)[C@@H](c3ccc(=O)oc3)CC[C@]12O — mRNA level (MCF7; RT-qPCR, item: CCND1; 50 nM, 48 h, unit not given, with: estradiol; relative to: untreated): 0.716 and 0.939 and 1.03
COc1c(CCC[P+](c2ccccc2)(c2ccccc2)c2ccccc2)cc2c(c1OC)OCO2.[I-] — LC50 (BT-549; SRB): > -4 log M
CC(C)[C@H](N)C(=O)N1CCC[C@H]1B(O)O — IL-1beta release (Ker-CT keratinocytes, GSDME knockout; inducer, ELISA; concentration not given, compound alone): 617 pg/mL and 638 pg/mL and 728 pg/mL
O=C1CCP(=S)(c2ccccc2)CC1 — viability reduction (PC-3; trypan blue; IC50, 72 h): 98%
C/C=C(/C)C(=O)O[C@H]1C(C)=C2[C@H]([C@@H]1OC(=O)CCCCCCC)[C@@](C)(OC(C)=O)C[C@H](OC(=O)CCC)[C@@]1(O)[C@H]2OC(=O)[C@@]1(C)O — phospho-eIF2α level (HEK293; western blot; 3 µM, 6 h, unit not given; relative to: GAPDH): 0.517 and 0.708 and 0.83
Cc1cccc(-c2cccc(C)n2)n1.Cc1cccc(-c2cccc(C)n2)n1.F[P-](F)(F)(F)(F)F.F[P-](F)(F)(F)(F)F.[Ru+2].c1ccc2cc(-c3nc4c5cccnc5c5ncccc5c4[nH]3)ccc2c1 — phototoxicity index (SK-MEL-28; 1% O2, with: blue light 453 nm, 100 J/cm2; relative to: dark over light EC50): 1
O=S(=O)(c1ccc(O)cc1)c1ccc(O)cc1 — S phase cells (HepG2 spheroids; Hoechst flow cytometry; 1 µM, 96 h): 11.2 ± 5.37%
Cn1cncc1C1=CN(c2ncnc3[nH]cnc23)CCS1 — CC50 (BT-549): 97.7 µM
CC(C)N1CCC(NC2CCN(c3cccc(-c4cc5cc(F)ccc5[nH]4)c3)CC2)CC1 — GI50 (UACC-62): 1.81 µM
Oc1ccc(C(c2ccc(O)cc2)(C(F)(F)F)C(F)(F)F)cc1 — G2 phase cells (HepG2 spheroids; Hoechst flow cytometry; 0.1 µM, 24 h): 18.6 ± 2.6%
COc1cc(CCC[P+](c2ccccc2)(c2ccccc2)c2ccccc2)c(OC)c2c1OCO2.[I-] — GI50 (UACC-62; SRB): -6.2 log M
CC(C)=CCc1c(O)cc(O)cc1-c1cc2ccc(O)c(CC=C(C)C)c2o1 — cell survival (3T3; cell growth, MTT; 12.5 µg/mL, 48 h): 73.74 ± 0.28%
CN1CCN(C2(CNC3CCN(c4cccc(-c5cc6cc(F)ccc6[nH]5)c4)CC3)CCC2)CC1 — CC50 (786-0): 6.89 µM
CC(C)C[C@H](NC(=O)[C@H](CCc1ccccc1)NC(=O)CN1CCOCC1)C(=O)N[C@@H](Cc1ccccc1)C(=O)N[C@@H](CC(C)C)C(=O)[C@@]1(C)CO1 — fold change (patient normal conditionally reprogrammed cells; RNA-seq, item: KIF1A mRNA; human; concentration not given; relative to: DMSO): -405
O=C1CCP(=[Se])(c2ccccc2)CC1 — selectivity index (PC-3; MTT; 72 h; relative to: IC50 HaCaT over IC50 PC-3): 1

A few entries again:
Cc1ccc2cc(N3CCC4(O)C(=O)c5cc(C)c(C)cc5N=C34)ccc2n1 (stereo not drawn) — maximal inhibition (COS-7; cytokinesis): ~100%
COc1c(C)c2c(c(O)c1C/C=C(\C)CCC(=O)O)C(=O)OC2 — IC50 (skin cancer cell lines; cell proliferation; average over lines): 0.646 µM
Cc1ccc2c(c1)C=Cc1cc(C)ccc1C2c1cn(Cc2ccc(C(=O)Nc3nn[nH]n3)o2)c(=O)[nH]c1=S — effect on signal (N2a; fluorescence signal increase, inhibitor; 1 µM, with: BzATP 300 µM): no effect
Nc1ncc(-c2nc(N3CCOCC3)nc(N3CCOCC3)n2)c(C(F)F)n1 — GI50 (PA-1; 72 h): 0.412 µM
